Measurements gathered from unrelated publications.
Compare with care: the assays were run in different laboratories. Numbers after ± are the reported error. ≈ marks a conversion by molar mass, not a printed value.

`NC(=O)CN1C(=O)C(O)(CC(=O)c2cccc(N)c2)c2ccccc21` (centres unmarked) gave an IC50 of 47 ± 0.1 µM (Leishmania donovani; MTT; AG83 wild type promastigotes; 48 h).
`N=C(N)NCCC[C@@H]1NC(=O)[C@H](CCCNC(=N)N)NC(=O)[C@@H](CCCNC(=N)N)NC(=O)[C@H](C(c2ccccc2)c2ccccc2)NC(=O)[C@H](C(c2ccccc2)c2ccccc2)NC(=O)[C@H](C(c2ccccc2)c2ccccc2)NC(=O)[C@H](CCCNC(=N)N)NC1=O` gave an MIC of 2 mg/L (≈ 1.54 µM) (Blastomyces dermatitidis; BD-3).
`FC(F)(F)c1cccc(CNc2nc(NC3CCN(Cc4ccccc4)CC3)c3nc[nH]c3n2)c1` has an MIC50 of 15 mg/L (≈ 31.2 µM) (Cryptococcus neoformans; microbial growth; 17 h).
For `CC(C)CS(=O)(=O)N[C@H]1CC[C@H](Nc2ncc3c(N4CCOCC4)n[nH]c3n2)CC1`, the EC50 was 0.055 µM (Leishmania donovani; parasite growth; amastigote).
`C[C@@H]1C(=O)O[C@@H](C)/C=C/C=C\[C@@H](C)[C@@H]2C=C[C@@H]3C[C@@]4(C)O[C@H]4[C@@H](C)[C@H]3[C@@H]2C(=O)C(Cl)(Cl)C1=O` gave a highest MIC of 0.2 mg/L (Staphylococcus aureus; MSSA and MRSA clinical isolates; 180 isolates).
`CC(c1c[nH]c2ccccc12)c1c[nH]c2ccccc12` gave an IC50 of > 50 µM (Parabacteroides distasonis; bacterial growth, inhibitor, OD600; anaerobic).
With `C=C(NC(=O)c1csc(-c2nc3c(cc2O)-c2nc(cs2)C(=O)NC(C(C)O)C(=O)NC(=C(C)OC)c2nc(cs2)C(=O)NC2c4nc(cs4)C(=O)NC(COC(=O)c4c5c6c(cccc6n4O)COC(=O)C(OC4CC(C)(O)C(N(C)C)C(C)O4)C2OC5)c2nc-3cs2)n1)C(N)=O` (centres unmarked) the ED50 was 0.73 mg/kg (Staphylococcus haemolyticus; mouse systemic infection; intravenous; survival).
Under “female worm burden reduction”, `CC(C)(C)NCC(SS(=O)(=O)O)c1ccccc1` (centres unmarked) is recorded as 8% (Schistosoma mansoni; mice; 600 mg/kg single dose, 1056 h, dosed day 1, perfused 44; relative to: vehicle).
Under “viral load reduction”, `Cc1ccc(S(=O)(=O)Nn2c3c(cc(-c4nc5ccccc5s4)c2=O)CCCC3)cc1` is recorded as 23.3% (hepatitis C virus; qRT-PCR; Huh7.5, genotype 4; concentration not given).
`Cc1cc(C(=O)Nc2nc3cccc(C)c3n2[C@H]2CCCCN(C(=O)/C=C/CN(C)C)C2)ccn1` gave an EC50 of 0.074 µM (Trypanosoma brucei brucei; cell growth, CellTiter-Glo; Lister 427 bloodstream form; 48 h, mean of 2 experiments).
`C=CCO/N=C(\C(=O)N[C@@H]1C(=O)N(OS(=O)(=O)O)C1(C)C)c1nsc(N)n1` gave an MIC of 2 mg/L (≈ 4.76 µM) (Serratia marcescens; agar dilution; ATCC 21074, susceptible).
`N=C(N)NCCC[C@@H]1NC(=O)[C@H](CCCNC(=N)N)NC(=O)[C@@H](CCCNC(=N)N)NC(=O)[C@@H](CCCNC(=N)N)NC(=O)[C@@H](C(c2ccccc2)c2ccccc2)NC(=O)[C@H](Cc2c[nH]c3ccccc23)NC(=O)[C@@H](C(c2ccccc2)c2ccccc2)NC1=O` gave an MIC of 2 mg/L (≈ 1.59 µM) (Blastomyces dermatitidis; BD-3).
For `Cc1cccc2c1N(C(=O)n1ccnn1)CC2`, the hypocotyl length was 14 mm (Arabidopsis thaliana; wild type, seedlings; 10 µM, continuous red light, together with: 0.3 µM karrikin KAR2).
The EC50 of `O=C1C(O)=C([C@H]2CC[C@H](c3ccc(Cl)cc3)CC2)C(=O)c2ccccc21` is reported as 0.063 µM (Toxoplasma gondii; bradyzoite growth; glutamine-induced bradyzoites).
The IC80 of `CCCOC(=O)N1c2cc(CNC)ccc2[C@H](NC(=O)C(=O)Nc2ccc(Cl)c(F)c2)[C@H]1CNC(=N)N` is reported as 1.38 µM (HIV-1; pseudovirus infection, Env pseudovirus neutralisation; TZM-bl, clade B T/F isolate d15_410_787).
The MIC50 of `CCCC(C)Oc1cccc(NC(=O)c2cccnc2)c1` (centres unmarked) is reported as 64 mg/L (≈ 225 µM) (Aspergillus fumigatus; microbial growth, broth dilution; MF5668).
For `c1ccc(CC(c2c[nH]c3ccccc23)c2c[nH]c3ccccc23)cc1`, the IC50 was 8.7 µM (Bacteroides fragilis; microbial growth, absorbance).
For `CCCCCCCCCC(=O)N[C@@H](Cc1c[nH]c2ccccc12)C(=O)N[C@H](CC(N)=O)C(=O)N[C@@H](CC(=O)O)C(=O)N[C@@H]1C(=O)NCC(=O)N[C@@H](CCCNC(=O)OC2/C=C/CCCCC2)C(=O)N[C@@H](CC(=O)O)C(=O)N[C@H](C)C(=O)N[C@@H](CC(=O)O)C(=O)NCC(=O)N[C@H](CO)C(=O)N[C@@H]([C@H](C)CC(=O)O)C(=O)N[C@@H](CC(=O)c2ccccc2N)C(=O)O[C@@H]1C` (some centres unmarked), “heat flow peak reduction” read 4.2 fold (Staphylococcus aureus; isothermal microcalorimetry; MRSA; 0.5 µg/mL; relative to: free drug).
`O=Cc1c[nH]c2ccccc12` has an IC50 of > 50 µM (Bacteroides fragilis; microbial growth, absorbance).
For `COC1C=COC2(C)Oc3c(C)c(O)c4c(c3C2=O)C2=NC3(CCN(CC(C)C)CC3)NC2=C(NC(=O)C(C)=CC=CC(C)C(O)C(C)C(O)C(C)C(OC(=O)Nc2cnccn2)C1C)C4=O` (centres unmarked), the IC90 was 0.056 µM (Mycobacteroides abscessus; bacterial growth; subsp. abscessus clinical isolate; slow grower).

Repeated from above:
`Cc1cc(C(=O)Nc2nc3cccc(C)c3n2[C@H]2CCCCN(C(=O)/C=C/CN(C)C)C2)ccn1` gave an EC50 of 0.074 µM (Trypanosoma brucei brucei; cell growth, CellTiter-Glo; Lister 427 bloodstream form; 48 h, mean of 2 experiments).
`N=C(N)NCCC[C@@H]1NC(=O)[C@H](CCCNC(=N)N)NC(=O)[C@@H](CCCNC(=N)N)NC(=O)[C@H](C(c2ccccc2)c2ccccc2)NC(=O)[C@H](C(c2ccccc2)c2ccccc2)NC(=O)[C@H](C(c2ccccc2)c2ccccc2)NC(=O)[C@H](CCCNC(=N)N)NC1=O` gave an MIC of 2 mg/L (≈ 1.54 µM) (Blastomyces dermatitidis; BD-3).
